Published values from different studies.
Numbers after ± are the reported error.
Genome polyprotein NS2B-NS3 protease: Genome polyprotein, NS2B-NS3 protease (dengue virus type 2, UniProt P29990)

| Molecule | target or system | assay | test system | setting | scale | quantity | value |
| --- | --- | --- | --- | --- | --- | --- | --- |
| O=C(N/N=C/c1cc[n+](Cc2ccccc2)c2ccccc12)N/N=C/c1cc[n+](Cc2ccccc2)c2ccccc12 | telomeric G4 DNA hybrid-2 | FRET melting |  | 1 µM, DNA 0.2 µM, together with: duplex DNA competitor 10 µM |  | ΔTm | 10 ± 0.7 °C |
| COC1CN([C@H]2CC[C@H]([C@@]3(C)Oc4c(Cl)cc(C(=O)NCc5c(SC)cc(C)[nH]c5=O)c(C)c4O3)CC2)C1 |  | RNA-seq, item: HS2ST1 | human, whole blood | dose not given, 24 h | relative to: pretreatment baseline | log2 fold change | 1.55 |
| NCCOc1cc(NC(=O)c2cc(OCc3cn(Cc4ccc(C(=O)O)cc4)nn3)cc(C(=O)Nc3cc(OCCN)c4ccccc4n3)n2)nc2ccccc12 | c-myc G-quadruplex DNA | FRET melting |  | 1 µM, pH 7.4, together with: 60 mM potassium |  | ΔTm | 5.3 ± 0.5 K |
| C[n+]1cccc2cc(/C=N/NC(=O)c3ccc4ccc(C(=O)N/N=C/c5ccc6c(ccc[n+]6C)c5)nc4n3)ccc21 | telomeric G4 DNA hybrid-2 | FRET melting |  | 1 µM, DNA 0.2 µM, together with: duplex DNA competitor 10 µM |  | ΔTm | 16.3 ± 1.9 °C |
| O=S(=O)(NCc1ccncc1)c1ccc(C2CCCCC2)cc1 | PU.1, mouse | reporter gene, inhibitor, luminescence | BV-2 PU.1 luciferase reporter | Mcule batch |  | EC50 | 0.01 µM |
| Cc1ncsc1-c1ccc(C(C)NC(=O)C2CC(O)CN2C(=O)C(NC(=O)CCCCCCCCCCN2CCCC(Nc3ncc(Cl)c(Nc4ccccc4S(=O)(=O)C(C)C)n3)C2)C(C)(C)C)cc1 (centres unmarked) | 22Rv1 | RNA-seq, item: NR4A1 mRNA |  | concentration not given | relative to: DMSO | log2 fold change | -1.12 |
| NCCOc1cc(NC(=O)c2cc(OCc3cn([C@H]4O[C@@H](CO)[C@H](O)[C@@H](O)[C@@H]4O)nn3)cc(C(=O)Nc3cc(OCCN)c4ccccc4n3)n2)nc2ccccc12 | K-ras G-quadruplex DNA | FRET melting |  | 1 µM, pH 7.4, together with: 60 mM potassium |  | ΔTm | 10.4 ± 0.4 K |
| Cc1cccc(O[C@H]2CCC[C@@H](C(C)CNCc3ccncc3)C2)c1 (relative stereo) | sodium channel site 2 (human) | binding, Cerep safety panel |  | 10 µM |  | inhibition | 84% |
| CC[n+]1cccc2cc(/C=N/NC(=O)c3cccc(C(=O)N/N=C/c4ccc5c(ccc[n+]5CC)c4)c3)ccc21 | telomeric G4 DNA hybrid-2 | FRET melting |  | 1 µM, DNA 0.2 µM, together with: duplex DNA competitor 10 µM |  | ΔTm | 6.7 ± 0.9 °C |
| Cc1ccc(S(=O)(=O)N2N=Cc3ccsc3B2O)cc1 | human pancreatic chymotrypsin | enzyme activity, inhibitor |  |  |  | IC50 | > 50 µM |
| Fc1ccc(Nc2nc(NC3CCCCC3)c3cc(Br)ccc3n2)cc1F | β2AR/β1AR TM6 chimera | β-arrestin2 recruitment, antagonist, BRET |  |  | relative to: isoprenaline maximal response | maximal inhibition | 0.7% |
| O=C(N/N=C/c1ccc2c(ccc[n+]2Cc2ccccc2)c1)c1cc(C(=O)N/N=C/c2ccc3c(ccc[n+]3Cc3ccccc3)c2)ncn1 | telomeric G4 DNA hybrid-2 | FRET melting |  | 1 µM, DNA 0.2 µM |  | ΔTm | 10.3 ± 4.7 °C |
| polymyxin B | Escherichia coli lipopolysaccharide | binding, BODIPY-TR cadaverine displacement |  | 1 h, pH 7.4, 37 °C, together with: BODIPY-TR cadaverine 2.5 µM and LPS 50 µg/mL |  | ED50 | 1.8 ± 0.23 µM |
| Cc1cccc(N2CCC(C(=O)Nc3cccc(C(N)=O)c3)C2=O)c1 (centres unmarked) | Genome polyprotein NS2B-NS3 protease | reporter gene | HeLa |  |  | EC50 | 39 µM |
| C[C@@H]1CN(Cc2ccc(S(=O)(=O)n3cnc(C4CC4)n3)cc2)[C@@H](C)CN1c1cc(=O)n(C)c2ccc(C#N)nc12 | DGKα human | PA production, inhibitor, PILS-Nir1 biosensor | HEK293A FKBP-DGKα | together with: rapamycin |  | IC50 | 3.2 µM |
| Nc1ncc(-c2cc(-c3cnn(CC(F)(F)F)c3)ncc2F)nc1C(=O)NC1CNCC(F)C1 (centres unmarked) | CSNK1G3 | KINOMEscan |  | 1 µM | relative to: DMSO control | remaining binding | 44% |
| NC(=O)c1cccc(NC(=O)c2oncc2-c2ccccc2)c1 | Genome polyprotein NS2B-NS3 protease | reporter gene | HeLa |  |  | EC50 | > 50 µM |
| c1ccc(-c2n[nH]cc2-c2ccnc3ccccc23)nc1 | SAK1 (Candida albicans) | kinase binding, MIB/MS competition | Candida albicans lysate | 1 µM | relative to: DMSO | log2 fold change | 0.01 |
| C=CC(=O)N1[C@H](c2ccc3c(c2)OCO3)c2[nH]c3ccccc3c2C[C@@H]1C(=O)N1CCN(C)CC1 | human cyclin E1 N112C-3xFLAG:CDK2 | co-IP with TMT proteomics, item: RPS14 |  | concentration not given, P62263 | relative to: wild type DMSO | relative co-enrichment | 95% |
| C=CC(=O)Nc1cccc(Cn2ncc3cnc(Nc4cnn(CCOC)c4)nc32)c1 | MEK2 human | binding, KINOMEscan |  | 100 nM | lower = stronger binding | percent of control | 99% |
| C[n+]1ccc(/C=N/NC(=O)c2cccc(C(=O)N/N=C/c3cc[n+](C)cc3)c2)cc1 | telomeric G4 DNA hybrid-2 | FRET melting |  | 1 µM, DNA 0.2 µM, together with: duplex DNA competitor 10 µM |  | ΔTm | 2.3 ± 0.3 °C |
| Cn1ccc2cc(-n3c(=O)[nH]c4sc5c(c4c3=O)CCCC5)ccc21 | rat L-type calcium channel | radioligand binding |  | 10 µM, dihydropyridine site |  | inhibition | -16% |
| C[n+]1ccc(/C=N/NC(=O)N/N=C/c2cc[n+](C)cc2)cc1 | telomeric G4 DNA hybrid-2 | FRET melting |  | 1 µM, DNA 0.2 µM |  | ΔTm | 2.7 ± 3 °C |
| O=C1c2ccc3c4ccc5c6c(ccc(c7ccc(c2c37)C(=O)N1CCN1CCCCC1)c64)C(=O)N(CCN1CCCCC1)C5=O | telomerase | telomerase activity, inhibitor, TRAP | PC-3 | 48 h |  | IC50 | 11.3 ± 0.2 µM |
| C[n+]1cc(/C=N/NC(=O)c2cncc(C(=O)N/N=C/c3cc4ccccc4[n+](C)c3)n2)cc2ccccc21 | telomeric G4 DNA hybrid-2 | FRET melting |  | 1 µM, DNA 0.2 µM |  | ΔTm | 15.3 ± 0.7 °C |
| CN(C)CCOc1cc(NC(=O)c2cccc(C(=O)Nc3cc(OCCN(C)C)c4ccccc4n3)n2)nc2ccccc12 | K-ras G-quadruplex DNA | FRET melting |  | 1 µM, pH 7.4, together with: 60 mM potassium |  | ΔTm | 9.9 ± 0.4 K |

Some of these lines once more:
| Molecule | target or system | assay | test system | setting | scale | quantity | value |
| --- | --- | --- | --- | --- | --- | --- | --- |
| C=CC(=O)Nc1cccc(Cn2ncc3cnc(Nc4cnn(CCOC)c4)nc32)c1 | MEK2 human | binding, KINOMEscan |  | 100 nM | lower = stronger binding | percent of control | 99% |
| C[n+]1ccc(/C=N/NC(=O)c2cccc(C(=O)N/N=C/c3cc[n+](C)cc3)c2)cc1 | telomeric G4 DNA hybrid-2 | FRET melting |  | 1 µM, DNA 0.2 µM, together with: duplex DNA competitor 10 µM |  | ΔTm | 2.3 ± 0.3 °C |
| polymyxin B | Escherichia coli lipopolysaccharide | binding, BODIPY-TR cadaverine displacement |  | 1 h, pH 7.4, 37 °C, together with: BODIPY-TR cadaverine 2.5 µM and LPS 50 µg/mL |  | ED50 | 1.8 ± 0.23 µM |
| Nc1ncc(-c2cc(-c3cnn(CC(F)(F)F)c3)ncc2F)nc1C(=O)NC1CNCC(F)C1 (centres unmarked) | CSNK1G3 | KINOMEscan |  | 1 µM | relative to: DMSO control | remaining binding | 44% |
